Published values gathered from unrelated publications.
Every numbered part comes from another study and shows a few of its results, in no order.

Block 1
Target: RNA binding protein fox-1 homolog 2, RRM domain, GST-SBP tag (RBFOX2, Homo sapiens, UniProt O43251-10, residues 100-194)
Method: RNA Bind-n-Seq
Molecule type: RNA
Matrix: in vitro
Concentration: 365 nM
Setting: natural RNA segment, single round, ends assumed
Reference: no-protein control
Reading: higher = stronger binding
All sequences stand within: GGGAGUUCUACAGUCCGACGAUC … UGGAAUUCUCGGGUGCCAA
Residues (chain): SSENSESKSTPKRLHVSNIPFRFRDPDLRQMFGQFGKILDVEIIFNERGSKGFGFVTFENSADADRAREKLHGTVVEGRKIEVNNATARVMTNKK
Sequence | RBNS enrichment (R)
AGCAAAUGAAAAGGAAUCUAUUUAUGGAAUAAACUCGAAACCUAAAUUUCAGUAUUUUAGUAAUAUGCCAGCUGUUCUUAAUGUAUUUAUUAAAAUGUAUAACAAUGUGA | 0.478
CAUCAUCAAGAACAACCUGAAGGACUGCGGCCUCUUCUGGGGGCAGCGGGGCCUGGCGGGAUGGGCCACCGCCGACUUUGUACCCCCCAACCCCUGAGGAAGAUGGGGGC | 0.26
AGAGUUGUCGAGCCUUGGAAUUGAUGCAGCUGUGUAGUGAGAACACAUUUGGCCAUAUUGGUGCUGCUGUACCAUAGUGUAGACUUUUACAGCUGUGAGGGUGGCUAUUG | 0.593
CCAGGGUGCAGUGUGAGUGUGAUGGGCCACCGGGGCAAGAGGGAAGGUGACCGCCCAGCUCUCCCACAUCCCACUGGAUCUGGCUUACAGGGGGGUCGGAAGCCUGUCCU | 0.942
AGAAAUUCCUAUCUACUUUAUUAAGCAGUAUUGAUCUGACUGUGGAAACAUCCUCUCACUUGCAUUCUUUUAACUUAAAACUAUUUAAGAACUGAUGUUCCGAUUAUUGU | 0.478
CUGCCUGCCUGCGAGGCACCUGCCUUGCAGCAGGCUCUCAGCCCUUCCCUCUGAGCUGCUCAGAGAGGGUAGCUAGCCCAAUGAUGUGGCCCGUGGACAGGAUAAGCAGA | 0.224
UGAUUUCAUCUUUGUUCCUAGAUGUACUCAUUUGAAUAGGUUUUGCGUUCAUUACUCAGCAGUGUAUAAAGCUAACCUUGAUAAUUUUACCUUUUGUUAAUUAUCUAAAU | 0.477
UCCCAUCCUGAUACAUCCUGAAGUAACACUGUUUUAAACUUUCUUAGUGCUGGAGUAAAAGGUCAAGUCCAACACCUGCCUUAAAUUUAAAUCAUGUGAUUUAUAGUUUU | 0.244

Block 2
Target: Ras GTPase-activating protein-binding protein 1, full length (G3BP1, Homo sapiens, UniProt Q13283)
Sequence of UniProt Q13283 (whole entry, looked up): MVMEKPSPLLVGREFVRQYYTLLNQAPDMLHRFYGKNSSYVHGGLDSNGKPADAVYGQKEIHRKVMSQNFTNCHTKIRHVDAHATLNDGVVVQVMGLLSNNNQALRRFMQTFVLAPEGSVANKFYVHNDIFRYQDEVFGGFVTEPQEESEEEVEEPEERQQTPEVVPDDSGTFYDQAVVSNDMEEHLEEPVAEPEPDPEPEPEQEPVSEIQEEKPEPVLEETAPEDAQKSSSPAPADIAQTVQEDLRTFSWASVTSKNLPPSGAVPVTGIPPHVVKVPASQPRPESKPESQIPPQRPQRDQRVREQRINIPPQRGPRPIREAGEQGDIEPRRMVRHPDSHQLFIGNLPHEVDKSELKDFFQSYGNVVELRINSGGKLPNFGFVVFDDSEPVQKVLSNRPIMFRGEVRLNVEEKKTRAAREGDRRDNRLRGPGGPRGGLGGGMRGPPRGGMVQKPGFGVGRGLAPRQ
Method: RNA Bind-n-Seq
Molecule type: RNA
Matrix: in vitro
Concentration: 200 nM
Setting: whole 134-nt RNA, ends assumed
Together with: 150 mM KCl
Reference: input library
Reading: higher = stronger binding
All sequences stand within: GGGAGUUCUACAGUCCGACGAUC … UGGAAUUCUCGGGUGUCAAGG
Sequence | log2 enrichment
CUCAAGUCCUGUGCUACACAUCGUAUGUACCGAAUCGGGUUGGGUUGGGUUGGAAAGUAUUAUGUUACGCCGUUCGGAUCUGCACUUCCA | 0.49
UAACUUUAGAGGAGGAUCUGAUGGAUAUGGCAGUGGACGUGGAUUUGGGGAUGGCUAUAAUGGGUAUUGAGGAGGACCUGGAGGUGGCAA | 0.372
CCUGUGCUACACAUCGUAUGUACCGAAUCGGGUUUUUUUGGGUUUUUUUGGGUUUUUUUGGAAAGUAUUAUGUUACGCCGUUCGGAUCUG | -0.732
GCAGGAAGUAAAAACAAAUGGAAAUGCUUCGGAUAGUGGCAGGGGUGGGGGUUGCUAAGGAAAGGGUGGGAUGGGAGUGGGUAAAUAGUU | 0.65
GUCCUGUGCUACACAUCGUAUGUACCGAAUCGGGGUUUGGGGAAAAAAAGGGGAGGGGAAAGUAUUAUGUUACGCCGUUCGGAUCUGCAC | 0.546
UGGGCGGCUGCGAGAUGAGAACGGACGACCCUACUCGCCCAGUCAGUAUGCGCUCCAGUACGCCGGGGACGGCAGUGUCCUCCUCAUCCC | 0.661
UCCUCAAGUCCUGUGCUACACAUCGUAUGUACCGAAUCGGCGGGGCGGCGGAAAGUAUUAUGUUACGCCGUUCGGAUCUGCACUUCCAGC | -0.355
UCAAGUCCUGUGCUACACAUCGUAUGUACCGAAUCGGCCCGGGCCCGGGGCCCGGAAAGUAUUAUGUUACGCCGUUCGGAUCUGCACUUC | -1.09
AAGUCCUGUGCUACACAUCGUAUGUACCGAAUCGGGAAAAGGAAAAGGGGAAAAGGAAAGUAUUAUGUUACGCCGUUCGGAUCUGCACUU | -0.695

Block 3
Target: PABPC1L2, full length, GST fusion (mouse, UniProt A0ABA7IW68)
Method: RNAcompete
Molecule type: RNA
Matrix: in vitro
Concentration: 20 nM
Setting: 7-mer, probes averaged, single round
Reference: mean of 7-mers
Reading: higher = stronger binding
Construct (chain): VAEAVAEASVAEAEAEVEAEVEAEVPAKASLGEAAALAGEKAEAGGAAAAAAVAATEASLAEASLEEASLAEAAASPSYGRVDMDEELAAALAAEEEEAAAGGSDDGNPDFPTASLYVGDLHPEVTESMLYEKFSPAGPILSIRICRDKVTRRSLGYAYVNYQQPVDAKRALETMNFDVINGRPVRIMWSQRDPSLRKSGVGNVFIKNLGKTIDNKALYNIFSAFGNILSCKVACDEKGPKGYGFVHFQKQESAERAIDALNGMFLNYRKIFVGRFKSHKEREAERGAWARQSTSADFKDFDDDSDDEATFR
Sequence | 7-mer Z-score
AUCCCGG | -0.137
AAAUCUU | 0.57
GUUUGUC | -0.481
GUGGAUC | 0.206
AUAGCUU | -0.215
ACAGCGU | -0.168
CGGAGGG | 0.193
UGAUACG | -0.262
CACCCAA | -0.0627
AUCUUCC | -0.409
UCUAUGA | -0.266
AGAUUCC | -0.302
GAGUCUA | -0.329
UAAGCAA | 0.0352
UGUACGG | -0.0899
GCGUGUG | -0.197
CAAUUAC | -0.184
UGCUGAU | -0.161
ACGAACA | 0.178
CACGUUA | -0.141
CGUAAGU | -0.42

Block 4
Target: RING finger protein unkempt homolog, zinc fingers 1-6, GST-SBP tag (UNK, Homo sapiens, UniProt Q9C0B0, residues 30-357)
Sequence of UniProt Q9C0B0 (30-357, looked up): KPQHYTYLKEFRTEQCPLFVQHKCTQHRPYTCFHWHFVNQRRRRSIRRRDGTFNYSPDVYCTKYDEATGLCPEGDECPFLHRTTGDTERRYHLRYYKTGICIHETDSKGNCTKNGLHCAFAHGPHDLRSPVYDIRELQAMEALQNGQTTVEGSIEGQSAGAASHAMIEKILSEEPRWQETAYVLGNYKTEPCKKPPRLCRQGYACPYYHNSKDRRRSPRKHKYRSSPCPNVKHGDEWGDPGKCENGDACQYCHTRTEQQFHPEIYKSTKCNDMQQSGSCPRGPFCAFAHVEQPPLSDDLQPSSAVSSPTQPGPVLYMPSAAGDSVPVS
Method: RNA Bind-n-Seq
Molecule type: RNA
Matrix: in vitro
Concentration: not given
Setting: RNA with constant flanks, human and mouse sites, ends assumed
Reference: input RNA pool
Reading: higher = stronger binding
All sequences stand within: GGGAGUUCUACAGUCCGACGAUC … CAACAGAGGAUUGAGCAUCA
Sequence | bound/input enrichment
CAAACGUGGGUGUUGGUGUGGACGGGGCGCAGAUCUCCGUGGAUGAACUGCGUCUGGACUCUUAGAUUCAUAAAAUAUUCGAGGGUUUGGGAGUCACAGACCCUCCCCUCUCCUCAGUGC | 2.76 ratio
AUUUGCAGAAACAGCGAGAACUUCAAAAGGCCAAUCAGUAAGUUUGAUUUGAAAAAUGAAUUUAGAGAUUUUUGGACAUGGAAUGAACAAAAUGGGGUCAUAUUGGUACCUCCCUCUCUA | 0.296 ratio
AGAAUCUUGGGACUGUUUUACUUAAUUGGUCAUUGAUAGCUUAACAAACAUGGAGAUAAGAUUAGAAAUCUUGACAUCAACAGGUAUUAAGCAGAAAAAACCAUGGCCACGUGUCUCCUG | 0.126 ratio
UCCUUCAUCGCCUCAGAAUCUGCUGUGGAAUUGCUUCCCGUUUGGUGUGUGGUGGCACUUCUCCAAUGUGGACUCCAAAGGAUUUGUCCCUUUACAAUUUGAAAUGAAAUGAUGGCCACA | 0.22 ratio
GAUGAUGAAAGUGAAGAGGAUGAAGAUGAUUUGUUGCAAAGGACUGGGAAUUUCAUCUCCACAUCCACGUCUCUUCCAAGAGGAAUCUUGAAGAUGAAGAACUGCCGGCCUGCCAAUGCU | 0.388 ratio
GAAGGAGACGGCGAGGGUGAGACCUAUUACUACGAAUACCCCUACUACGAAGACCCCGAAGACCUAGGGAAGGAGCCCACCCCCAGCAAGAAGCCCGUGGAAGCUGCCAAAGAAACCACA | 0.218 ratio
AAGGAUGCAAGAUCGGAUUCCUGGCAGCUCGUACAGACCCAGUGCCUUCCUUCCUCUUCUAACAGCAUUGGCUGCUCCCCUUUCCAGUUCCAUGAAGCCACCAUCUACAACUCUGUCAAC | 0.275 ratio
AAGCCUUUCUCUCUCACUUCCCGAGGUGCCUUGUUUCAGGAGAUCUCCAGCAAUGACAUUAGUUCCAAACUCACUCUUCUUACACUUCACUUCCCCAGACUACGGAUUCUCUGGUGCCCC | 1.02 ratio

For quick reference, copied from above (block 1):
Sequence | RBNS enrichment (R)
CAUCAUCAAGAACAACCUGAAGGACUGCGGCCUCUUCUGGGGGCAGCGGGGCCUGGCGGGAUGGGCCACCGCCGACUUUGUACCCCCCAACCCCUGAGGAAGAUGGGGGC | 0.26
AGAGUUGUCGAGCCUUGGAAUUGAUGCAGCUGUGUAGUGAGAACACAUUUGGCCAUAUUGGUGCUGCUGUACCAUAGUGUAGACUUUUACAGCUGUGAGGGUGGCUAUUG | 0.593
CCAGGGUGCAGUGUGAGUGUGAUGGGCCACCGGGGCAAGAGGGAAGGUGACCGCCCAGCUCUCCCACAUCCCACUGGAUCUGGCUUACAGGGGGGUCGGAAGCCUGUCCU | 0.942
AGAAAUUCCUAUCUACUUUAUUAAGCAGUAUUGAUCUGACUGUGGAAACAUCCUCUCACUUGCAUUCUUUUAACUUAAAACUAUUUAAGAACUGAUGUUCCGAUUAUUGU | 0.478
